Assay results gathered from unrelated publications.
Each line is one published result; not all experiments were run side by side. Several values in a cell are separate wells, animals, samples, runs or records. Numbers after ± are the reported error. ≈ marks a conversion by molar mass, not a printed value.

SMILES	cell line	assay	system	conditions	scale	quantity	value
CC(=O)NCCCC[C@@H]1NC(=O)[C@H](Cc2c[nH]c3c(C)cccc23)NC(=O)[C@H]([C@@H](C)O)NC(=O)[C@H](CC(N)=O)NC(=O)[C@@H](NC(C)=O)C(C)(C)SSC(C)(C)[C@@H](C(=O)N[C@@H](Cc2ccc(OCCN)cc2)C(=O)N[C@@H](Cc2ccc3ccccc3c2)C(=O)NC2(C(=O)N[C@@H](CCC(=O)O)C(=O)N[C@@H](CC(N)=O)C(=O)N[C@@H](Cc3cccnc3)C(=O)N(C)CC(N)=O)CCOCC2)NC1=O	human hepatocytes	inducer, refers to: CYP1A2, CYP2B6, CYP3A4 mRNA	–	90 µM	reference: positive control	induction	< 5%
Cc1ccc(OCCN(C)C)cc1C(=O)N[C@H](C)c1cc(-c2ccn(C)n2)nc2ccccc12	Vero E6	–	–	31.25 µM	–	viability	81.8% and 93.7% and 96.2%
CC[C@H](C)[C@H](NC(=O)[C@H](CCCNC(=N)N)NC(=O)[C@H](Cc1c[nH]c2ccccc12)NC(=O)[C@H](CCCNC(=N)N)NC(=O)[C@H](Cc1c[nH]c2ccccc12)NC(=O)[C@H](Cc1c[nH]c2ccccc12)NC(=O)[C@H](Cc1c[nH]c2ccccc12)NC(=O)[C@H](CCCNC(=N)N)NC(=O)[C@H](Cc1c[nH]c2ccccc12)NC(=O)[C@H](CCCNC(=N)N)NC(=O)CN)C(N)=O	mouse red blood cells	–	–	–	–	minimal haemolytic concentration	32 µM
CC1CCC(C(C)(C)C(=O)Nc2ccc(Oc3ccccc3)cc2)CC1 (stereo not drawn)	CHO	cell growth or viability	–	72 h	–	IC50	> 100 µM
Cc1ccc(N2CC(N(C)C)C2)cc1C(=O)N[C@H](C)c1cc(-c2cnn(C)c2)nc2ccccc12	Vero E6	–	–	500 µM	–	viability	0.628% and -0.157% and 2.04%
CC[C@H](C)[C@@H]1NC(=O)[C@H](C(C)C)NC(=O)[C@H](C(C)C)NC(=O)[C@H](CC(C)C)NC(=O)C[C@@H](C(=O)N[C@@H](Cc2c[nH]c3ccccc23)C(=O)N[C@@H](CC(N)=O)C(=O)N[C@@H](C)C(=O)N2CCC[C@H]2C(=O)NCC(=O)N[C@@H](Cc2c[nH]c3ccccc23)C(=O)N[C@@H](Cc2ccccc2)C(=O)O)NC(=O)[C@H](C)NC(=O)[C@H](CCC(N)=O)NC(=O)[C@H](C(C)C)NC1=O	HCT-8	–	–	10 µM	–	cytotoxicity	not toxic
Cn1ccc([C@H](CO)Nc2nc(N3C[C@@H]4C[C@H]3CO4)c3cc(-c4ccccc4)oc3n2)n1	RRCK (MDCK)	–	–	–	–	Papp	37.8 ± 5.5 ×10⁻⁶ cm/s
O=C(C=Cc1ccc(O)c(O)c1)OC1CC(O)(C(=O)O)CC(OC(=O)C=Cc2ccc(O)c(O)c2)C1O (stereo not drawn)	Vero E6	–	–	200 µM	–	cytotoxicity	25%
CNC(=O)C[C@H](Cc1ccc(F)cc1)NC(=O)[C@@H](Cc1ccc(Cl)cc1Cl)NC(=O)[C@H](N)Cc1ccccc1[N+](=O)[O-]	Huh-7-ACE2	CellTiter-Glo	–	0.000763 µM, 48 h, unit not given	reference: DMSO	viability	0.982 and 1.05 and 0.955
N=C(N)NCCC[C@H](NC(=O)[C@H](Cc1c[nH]c2ccccc12)NC(=O)[C@H](CCCNC(=N)N)NC(=O)[C@H](Cc1c[nH]c2ccccc12)NC(=O)[C@H](Cc1c[nH]c2ccccc12)NC(=O)[C@H](Cc1c[nH]c2ccccc12)NC(=O)[C@H](CCCNC(=N)N)NC(=O)[C@H](Cc1c[nH]c2ccccc12)NC(=O)[C@@H](N)CCCNC(=N)N)C(N)=O	mouse red blood cells	–	–	–	–	minimal haemolytic concentration	> 128 µM
CCn1cc(-c2cc([C@@H](C)NC(=O)c3cc(OCCN(C)C)ccc3C)c3ccccc3n2)c(C(F)(F)F)n1	Vero E6	–	–	250 µM	–	viability	1.35% and 2.5%
NC(=O)c1cc(-c2cccnc2)ccc1OCCc1cccc(F)c1	HepG2	–	–	3 (unit not given)	reference: CC50 glucose over CC50 galactose	selectivity ratio	< 1
O=C(O)c1cccc(CP(=O)(O)O)n1	H4IIE	membrane integrity, CFDA-AM	–	24 h, without 10% FBS	–	EC50	200 ± 30 µg/mL (≈ 921 µM)
CNC(=O)C[C@H](Cc1ccncc1)NC(=O)[C@@H](Cc1cccc(Br)c1)NC(=O)[C@@H](N)Cc1cccc(F)c1	Huh-7-ACE2	CellTiter-Glo	–	0.0977 µM, 48 h, unit not given	reference: DMSO	viability	0.917 and 1.06 and 1.01
O=C1C=CC(=O)c2c(O)cccc21	MRC-5	cytotoxicity, MTT	–	48 h, 10% FBS	–	IC50	26.2 ± 0.53 µM
CC(C)C[C@H](NC(=O)[C@H](CCC(=O)O)NC(=O)[C@H](Cc1ccccc1)NC(=O)[C@@H]1CCCN1C(=O)CNC(=O)OCc1ccccc1)C(=O)N[C@@H](CCC(=O)O)C(=O)N[C@@H](CCCNC(=N)N)C(=O)N[C@@H](CCCNC(=N)N)C(=O)N[C@@H](Cc1ccccc1)C(=O)N[C@@H](CCCCN)C(=O)N[C@@H](CCC(N)=O)C(=O)N[C@@H](CCC(N)=O)C(=O)O	HCT-116	LC-MS/MS	serum-free DMEM	20 µM, 2 h	–	hydrolysis	7.5%
N=C(N)NCCC[C@H](NC(=O)[C@H](Cc1c[nH]c2ccccc12)NC(=O)[C@H](CCCNC(=N)N)NC(=O)[C@H](Cc1c[nH]c2ccccc12)NC(=O)[C@H](Cc1c[nH]c2ccccc12)NC(=O)[C@H](Cc1c[nH]c2ccccc12)NC(=O)[C@H](CCCNC(=N)N)NC(=O)[C@H](Cc1c[nH]c2ccccc12)NC(=O)[C@@H](N)CCCNC(=N)N)C(=O)N[C@@H](Cc1ccccc1)C(N)=O	mouse red blood cells	–	–	–	–	minimal haemolytic concentration	32 µM

SMILES	cell line	assay	system	conditions	scale	quantity	value
Cc1ccc(N2CCC3(CC2)CN(C)C3)cc1C(=O)N[C@H](C)c1cc(-c2cnn(C)c2)nc2ccccc12	Vero E6	–	–	31.25 µM	–	viability	94.1% and 89.3% and 94.3%
CC(C)C[C@H](NC(=O)[C@H](CCCNC(=N)N)NC(=O)[C@@H](N)Cc1c[nH]c2ccccc12)C(=O)N[C@@H](Cc1c[nH]c2ccccc12)C(=O)N[C@@H](Cc1c[nH]c2ccccc12)C(=O)N[C@@H](Cc1c[nH]c2ccccc12)C(=O)N[C@@H](CCCNC(=N)N)C(=O)N[C@@H](CCCNC(=N)N)C(=O)N[C@@H](Cc1c[nH]c2ccccc12)C(=O)O	HEK-293T cells	CCK-8	–	4 h, 37 °C, 10% cell death	–	lowest cytotoxic concentration	> 256 µg/mL
Cc1ccc(N2CCC(N(C)C)CC2)cc1C(=O)N[C@H](C)c1cc(-c2cnn(C)c2)nc2ccccc12	Vero E6	–	–	250 µM	–	viability	0.514% and 0.342%
C#CCOc1ccc(CN[C@@]2(C)C[C@H](O[C@H]3[C@H](Oc4c5cc6cc4Oc4ccc(cc4Cl)[C@@H](O)[C@@H](NC(=O)[C@@H](CC(C)C)NC)C(=O)N[C@@H](CC(N)=O)C(=O)N[C@H]6C(=O)N[C@H]4C(=O)N[C@H](C(=O)N[C@H](C(=O)O)c6cc(O)cc(O)c6-c6cc4ccc6O)[C@H](O)c4ccc(c(Cl)c4)O5)O[C@H](CO)[C@@H](O)[C@@H]3O)O[C@@H](C)[C@H]2O)cc1OC	sheep erythrocytes	–	–	512 µg/mL, 37 °C	reference: Triton X-100	hemolysis	< 5%
O=c1n(CCNCCOS(=O)(=O)c2ccccc2)c(=O)n(S(=O)(=O)c2ccccc2)c(=O)n1S(=O)(=O)c1ccccc1	HUVEC	cell growth or viability, MTT	–	50 µg/mL, 48 h	–	viability	26.7%
CCn1ccc(-c2cc([C@@H](C)NC(=O)c3cc(N4CCN(C)CC4)ccc3C)c3ccccc3n2)n1	Vero E6	–	–	250 µM	–	viability	0.599% and 0.449%
N=C(N)NCCC[C@H](NC(=O)[C@H](Cc1c[nH]c2ccccc12)NC(=O)[C@H](CCCNC(=N)N)NC(=O)[C@H](Cc1c[nH]c2ccccc12)NC(=O)[C@H](Cc1c[nH]c2ccccc12)NC(=O)[C@H](Cc1c[nH]c2ccccc12)NC(=O)[C@H](CCCNC(=N)N)NC(=O)[C@H](Cc1c[nH]c2ccccc12)NC(=O)[C@H](CCCNC(=N)N)NC(=O)CN)C(N)=O	mouse red blood cells	–	–	–	–	minimal haemolytic concentration	> 128 µM
CCCCCC1=C(NCC)C(=O)C(C/C=C(\C)CCC=C(C)C)=C(O)C1=O	human peripheral lymphocytes	–	–	45 µg/mL, 3 h, with S9, harvest 27 h	–	cytostasis	47%
CNC(=O)C[C@H](Cc1ccc(F)cc1)NC(=O)[C@@H](Cc1ccc(Cl)cc1Cl)NC(=O)[C@H](N)Cc1ccccc1C#N	Huh-7-ACE2	CellTiter-Glo	–	0.0977 µM, 48 h, unit not given	reference: DMSO	viability	0.961 and 1.06
CN(C)CCCNC(=O)[C@@H]1NC(=O)[C@@H]2Cc3ccc(cc3)Oc3cc4cc(c3O)-c3ccc5c(c[nH]c5c3)C[C@@H](NC(=O)C(NC(=O)CCCCCN)c3ccc(O)cc3)C(=O)N[C@H](c3ccc(O)cc3)C(=O)N[C@H]4C(=O)N[C@@H](C(=O)N2C)c2ccc(cc2)Oc2cc1ccc2O (stereo partly drawn)	human red blood cells	–	PBS	4 µg/mL, 1 h, pH 7.4, 37 °C	–	hemolysis	0.95% and 0%
N=C(N)NCCC[C@H](NC(=O)CN)C(=O)N[C@@H](Cc1c[nH]c2ccccc12)C(=O)N[C@@H](CCCNC(=N)N)C(=O)N[C@@H](Cc1c[nH]c2ccccc12)C(=O)N[C@@H](Cc1c[nH]c2ccccc12)C(=O)N[C@@H](Cc1c[nH]c2ccccc12)C(=O)N[C@@H](CCCNC(=N)N)C(=O)N[C@@H](Cc1c[nH]c2ccccc12)C(=O)N[C@@H](CCCNC(=N)N)C(=O)N[C@@H](Cc1ccccc1)C(N)=O	mouse red blood cells	–	–	–	–	minimal haemolytic concentration	16 µM
Cc1ccc(OC[C@@H]2CCCN2C)cc1C(=O)N[C@H](C)c1cc(-c2cnn(C)c2)nc2ccccc12	African green monkey cells	–	–	31.25 µM	–	viability	93%
O=C1C=CC(=O)c2ccccc21	MRC-5	cytotoxicity, MTT	–	48 h, 10% FBS	–	IC50	36.9 ± 0.51 µM
Cc1ccc(N(C)C2CN(C)C2)cc1C(=O)N[C@H](C)c1cc(-c2cnn(C)c2)nc2ccccc12	Vero E6	–	–	7.812 µM	–	viability	88.6% and 86% and 86.5%
CNC(=O)C[C@H](Cc1ccccc1)NC(=O)[C@@H](Cc1ccc(Cl)cc1Cl)NC(=O)[C@H](N)Cc1ccccc1C#N	Huh-7-ACE2	CellTiter-Glo	–	0.000381 µM, 48 h, unit not given	reference: DMSO	viability	0.913 and 0.998 and 0.996
O=C(CCCCCOc1ccc2ccccc2c1)N[C@@H](CO)C[C@@H](O)c1ccc(-c2ccccc2)cc1	HeLa	–	–	1 µM, lipidomics treatment	–	living cells	93% and 87% and 97%

Some of these lines once more:
SMILES	cell line	assay	system	conditions	scale	quantity	value
Cc1ccc(OC[C@@H]2CCCN2C)cc1C(=O)N[C@H](C)c1cc(-c2cnn(C)c2)nc2ccccc12	African green monkey cells	–	–	31.25 µM	–	viability	93%
O=c1n(CCNCCOS(=O)(=O)c2ccccc2)c(=O)n(S(=O)(=O)c2ccccc2)c(=O)n1S(=O)(=O)c1ccccc1	HUVEC	cell growth or viability, MTT	–	50 µg/mL, 48 h	–	viability	26.7%
